Measurements from different studies.
Compare with care: the assays were run in different laboratories. ± gives the spread as reported.
Cell line: SH-SY5Y

SMILES | test | conditions | how to read | endpoint | value
CC(C)C[C@@H]1NC(=O)[C@H](CC(C)C)NC(=O)[C@H](Cc2ccc(O)cc2)NC(=O)[C@@H](N)CCCNC(=O)[C@H](CCCCN)NC(=O)[C@H](C(C)C)NC(=O)[C@H]([C@@H](C)O)NC(=O)[C@H](C(C)C)N(C)C(=O)[C@H]([C@@H](C)O)NC(=O)[C@H](C(C)C)NC(=O)[C@H](CCCCN)NC(=O)[C@@H](N)CCCNC(=O)[C@H](CCC(=O)O)NC(=O)[C@H]([C@@H](C)O)NC(=O)[C@H](Cc2ccc(O)cc2)NC(=O)[C@H](Cc2ccc(I)cc2)NC1=O | cytotoxicity | 25 µM | – | LDH release | 14 ± 2%
Cc1cc(NC(=O)c2cccc(-n3cc(NC(=O)Nc4ccccc4Cl)cn3)c2)ccn1 | in-cell Western, item: phospho-c-Jun | pretreatment 1 h, with: 35 µM 6-OHDA | – | IC50 | 0.866 ± 0.204 µM
COc1ccc(NC(=O)COc2ccc(/C=C/C(C)=N/O)cc2OC)cc1 | flow cytometry | 40 µM, with: amyloid beta 10 µM | – | IL-6 expressing cells | 6.52%
Cc1c(C)c(C)[c-](C)c1C.O=C1c2cccc[n+]2[Ir]([Cl])[N]1CCCCCCCCCC[P+](c1ccccc1)(c1ccccc1)c1ccc2ccc3cccc4ccc1c2c34.[Br-] | SRB | 5 µM, 3 h, with: aldehyde Ia 20 µM, 24 h | reference: aldehyde Ia alone | viability fold enhancement | 1.8 fold
COc1c(C)c(OS(=O)(=O)c2ccccc2)c(C)c2c1C(=O)CC(c1ccccc1)O2 (stereo not drawn) | cell growth or viability, SRB | 72 h | – | IC50 | 44.7 µM
CC[C@H](C)[C@H]1C(=O)N[C@@H]([C@@H](C)O)C(=O)N[C@@H](C(C)C)C(=O)N[C@@H](CCCCN)C(=O)NCCC[C@H](N)C(=O)N[C@@H](Cc2ccc(O)cc2)C(=O)N[C@@H](CC(C)C)C(=O)N[C@@H](CC(C)C)C(=O)N[C@@H](Cc2ccc(I)cc2)C(=O)N[C@@H](Cc2ccc(O)cc2)C(=O)N[C@@H]([C@@H](C)O)C(=O)N[C@@H](CCC(=O)O)C(=O)NCCC[C@H](N)C(=O)N[C@@H](CCCCN)C(=O)N[C@@H](C(C)C)C(=O)N[C@@H]([C@@H](C)O)C(=O)N1C | cytotoxicity | 25 µM | – | LDH release | 20 ± 2%
Cc1c(C)c(C)[c-](C)c1C.O=C(CCC[N-]C(=O)c1ccccn1)NCc1ccc2ccc3cccc4ccc1c2c34.[Cl-].[Ir+3] | cell growth or viability, SRB | 24 h | – | IC50 | 32 µM
Cc1ccc(NC(=O)Nc2cnn(-c3cccc(C(=O)Nc4ccnc(C)c4)c3)c2)cc1 | in-cell Western, item: phospho-c-Jun | pretreatment 1 h, with: 35 µM 6-OHDA | – | IC50 | 3.03 ± 1.08 µM
Cc1c(C)c(C)[c-](C)c1C.O=C1c2cccc[n+]2[Ir]([Cl])[N]1CCCCCCCCCC[P+](c1ccccc1)(c1ccccc1)c1ccccc1.[Br-] | – | concentration not given, with: MPP+ | – | NAD+ level | 55%
CC(C)C[C@@H]1NC(=O)[C@H](CC(C)C)NC(=O)[C@H](Cc2ccc(O)cc2)NC(=O)[C@@H](N)CCCNC(=O)[C@H](CCCCN)NC(=O)[C@H](C(C)C)NC(=O)[C@H]([C@@H](C)O)NC(=O)[C@H](C)N(C)C(=O)[C@H]([C@@H](C)O)NC(=O)[C@H](C(C)C)NC(=O)[C@H](CCCCN)NC(=O)[C@@H](N)CCCNC(=O)[C@H](CCC(=O)O)NC(=O)[C@H]([C@@H](C)O)NC(=O)[C@H](Cc2ccc(O)cc2)NC(=O)[C@H](Cc2ccc(I)cc2)NC1=O | cytotoxicity | 25 µM | – | LDH release | 5 ± 1%
CCCCC1OC(=O)C2=CCCCC21 (stereo not drawn) | neuroprotection, CCK-8 | with: 6-OHDA 200 µmol/L | – | EC50 | 0.962 µM
COc1c(C)c(OC(=O)c2ccccc2)c(C)c(OC(=O)c2ccccc2)c1C(=O)/C=C/c1ccccc1 | cell growth or viability, SRB | 72 h | – | IC50 | 25.3 µM
CCCCCCCCCC[N]1C(=O)c2cccc[n+]2[Ir]1[Cl].Cc1c(C)c(C)[c-](C)c1C | SRB | 5 µM, 3 h, with: aldehyde Ia 20 µM, 24 h | reference: aldehyde Ia alone | viability fold enhancement | 1.7 fold
N#Cc1ccc2[nH]c(O)c(-c3ccc(CN4CCOCC4)cn3)c2c1 | β-catenin nuclear translocation | 6 h | – | EC50 | 3.27 µM
CC[C@H](C)[C@H]1C(=O)N[C@@H](C)C(=O)N[C@@H](C(C)C)C(=O)N[C@@H](CCCCN)C(=O)NCCC[C@H](N)C(=O)N[C@@H](Cc2ccc(O)cc2)C(=O)N[C@@H](CC(C)C)C(=O)N[C@@H](CC(C)C)C(=O)N[C@@H](Cc2ccc(I)cc2)C(=O)N[C@@H](Cc2ccc(O)cc2)C(=O)N[C@@H]([C@@H](C)O)C(=O)N[C@@H](CCC(=O)O)C(=O)NCCC[C@H](N)C(=O)N[C@@H](CCCCN)C(=O)N[C@@H](C(C)C)C(=O)N[C@@H](C)C(=O)N1C | cytotoxicity | 25 µM | – | LDH release | 18 ± 2%
O=C(O)CCCOc1ccc(F)cc1-c1cc(-c2ccccc2C(F)(F)F)n(-c2ccccc2)n1 | – | 0.3 µM, with: rotenone 1 µM | – | BAX mitochondrial translocation | decreased
Cc1cc(NC(=O)c2cccc(-n3cc(NC(=O)Nc4ccc(F)cc4)cn3)c2)ccn1 | in-cell Western, item: phospho-c-Jun | pretreatment 1 h, with: 35 µM 6-OHDA | – | IC50 | > 10 µM
CC(C)C[C@@H]1NC(=O)[C@H](CC(C)C)NC(=O)[C@H](Cc2ccc(O)cc2)NC(=O)[C@@H](N)CCCNC(=O)[C@H](CCCCN)NC(=O)[C@H](C(C)C)NC(=O)[C@H](C)NC(=O)[C@H](C(C)C)N(C)C(=O)[C@H](C)NC(=O)[C@H](C(C)C)NC(=O)[C@H](CCCCN)NC(=O)[C@@H](N)CCCNC(=O)[C@H](CCC(=O)O)NC(=O)[C@H]([C@@H](C)O)NC(=O)[C@H](Cc2ccc(O)cc2)NC(=O)[C@H](Cc2ccc(I)cc2)NC1=O | cytotoxicity | 25 µM | – | LDH release | 22 ± 5%

Some of these lines once more:
SMILES | test | conditions | how to read | endpoint | value
Cc1cc(NC(=O)c2cccc(-n3cc(NC(=O)Nc4ccccc4Cl)cn3)c2)ccn1 | in-cell Western, item: phospho-c-Jun | pretreatment 1 h, with: 35 µM 6-OHDA | – | IC50 | 0.866 ± 0.204 µM
